Results collected from several papers.
± marks the error that the study gave.
Putative glycogen synthase kinase: Putative glycogen synthase kinase (Leishmania major, UniProt Q4QE15)
BCHE: Cholinesterase (BCHE, Equus caballus, UniProt P81908)
Chain of UniProt P81908 (whole entry, looked up): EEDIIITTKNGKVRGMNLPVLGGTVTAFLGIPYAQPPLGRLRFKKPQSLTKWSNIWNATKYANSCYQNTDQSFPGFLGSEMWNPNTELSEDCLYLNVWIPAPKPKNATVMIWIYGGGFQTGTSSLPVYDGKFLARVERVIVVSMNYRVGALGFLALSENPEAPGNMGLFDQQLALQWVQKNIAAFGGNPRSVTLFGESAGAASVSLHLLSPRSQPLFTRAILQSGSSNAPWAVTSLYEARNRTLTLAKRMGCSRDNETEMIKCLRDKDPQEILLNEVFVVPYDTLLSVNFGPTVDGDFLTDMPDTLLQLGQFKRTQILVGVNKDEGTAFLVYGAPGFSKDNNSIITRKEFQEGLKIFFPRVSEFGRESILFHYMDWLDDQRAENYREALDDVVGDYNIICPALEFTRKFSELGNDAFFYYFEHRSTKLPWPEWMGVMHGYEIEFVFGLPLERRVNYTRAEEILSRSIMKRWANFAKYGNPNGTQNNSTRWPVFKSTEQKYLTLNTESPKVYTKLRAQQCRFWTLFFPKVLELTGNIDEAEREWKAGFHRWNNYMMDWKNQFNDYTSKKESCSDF
Chain of UniProt Q7RTT9 (whole entry, unmodified, looked up): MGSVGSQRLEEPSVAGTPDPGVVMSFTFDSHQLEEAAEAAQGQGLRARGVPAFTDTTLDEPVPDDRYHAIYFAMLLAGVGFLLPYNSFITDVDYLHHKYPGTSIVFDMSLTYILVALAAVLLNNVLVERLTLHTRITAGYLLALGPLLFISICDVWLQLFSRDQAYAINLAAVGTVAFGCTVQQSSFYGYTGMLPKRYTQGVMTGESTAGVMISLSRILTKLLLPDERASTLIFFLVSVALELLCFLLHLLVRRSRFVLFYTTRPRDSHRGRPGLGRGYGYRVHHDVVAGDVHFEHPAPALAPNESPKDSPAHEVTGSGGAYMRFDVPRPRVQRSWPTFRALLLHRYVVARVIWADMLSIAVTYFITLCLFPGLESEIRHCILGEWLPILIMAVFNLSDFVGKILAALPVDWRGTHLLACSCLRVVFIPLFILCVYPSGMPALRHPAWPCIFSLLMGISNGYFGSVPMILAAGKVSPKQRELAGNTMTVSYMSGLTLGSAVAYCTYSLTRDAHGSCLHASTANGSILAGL
Chain of UniProt Q61093 (whole entry, looked up): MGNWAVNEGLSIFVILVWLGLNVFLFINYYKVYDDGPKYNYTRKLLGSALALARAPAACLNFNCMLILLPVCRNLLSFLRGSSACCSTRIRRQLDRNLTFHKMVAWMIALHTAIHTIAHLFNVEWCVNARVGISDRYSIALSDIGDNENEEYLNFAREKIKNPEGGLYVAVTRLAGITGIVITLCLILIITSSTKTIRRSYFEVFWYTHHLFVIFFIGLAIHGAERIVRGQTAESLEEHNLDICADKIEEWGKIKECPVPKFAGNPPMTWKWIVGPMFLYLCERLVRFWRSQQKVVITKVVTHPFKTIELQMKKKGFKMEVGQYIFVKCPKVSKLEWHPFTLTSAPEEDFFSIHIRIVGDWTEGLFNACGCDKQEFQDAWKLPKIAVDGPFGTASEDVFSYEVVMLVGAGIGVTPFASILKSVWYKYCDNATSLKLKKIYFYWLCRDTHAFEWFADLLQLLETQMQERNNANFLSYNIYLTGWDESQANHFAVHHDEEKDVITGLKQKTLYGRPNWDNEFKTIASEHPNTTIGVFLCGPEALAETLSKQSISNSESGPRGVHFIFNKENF
Chain of UniProt P17787 (whole entry, looked up): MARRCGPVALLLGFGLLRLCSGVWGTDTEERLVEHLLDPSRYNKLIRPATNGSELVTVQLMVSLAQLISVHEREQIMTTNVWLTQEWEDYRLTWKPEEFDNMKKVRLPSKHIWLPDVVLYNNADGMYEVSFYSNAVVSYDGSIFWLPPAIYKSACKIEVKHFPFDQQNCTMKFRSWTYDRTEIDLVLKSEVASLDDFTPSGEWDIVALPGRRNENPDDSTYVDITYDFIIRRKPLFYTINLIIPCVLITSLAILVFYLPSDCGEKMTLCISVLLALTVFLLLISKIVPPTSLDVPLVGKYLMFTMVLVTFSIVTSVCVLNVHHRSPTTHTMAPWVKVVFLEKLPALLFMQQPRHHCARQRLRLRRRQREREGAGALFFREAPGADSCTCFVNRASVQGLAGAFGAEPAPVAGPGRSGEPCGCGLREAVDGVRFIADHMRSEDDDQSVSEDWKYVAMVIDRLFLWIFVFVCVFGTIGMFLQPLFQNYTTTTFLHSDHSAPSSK
Chain of UniProt O08914 (whole entry, looked up): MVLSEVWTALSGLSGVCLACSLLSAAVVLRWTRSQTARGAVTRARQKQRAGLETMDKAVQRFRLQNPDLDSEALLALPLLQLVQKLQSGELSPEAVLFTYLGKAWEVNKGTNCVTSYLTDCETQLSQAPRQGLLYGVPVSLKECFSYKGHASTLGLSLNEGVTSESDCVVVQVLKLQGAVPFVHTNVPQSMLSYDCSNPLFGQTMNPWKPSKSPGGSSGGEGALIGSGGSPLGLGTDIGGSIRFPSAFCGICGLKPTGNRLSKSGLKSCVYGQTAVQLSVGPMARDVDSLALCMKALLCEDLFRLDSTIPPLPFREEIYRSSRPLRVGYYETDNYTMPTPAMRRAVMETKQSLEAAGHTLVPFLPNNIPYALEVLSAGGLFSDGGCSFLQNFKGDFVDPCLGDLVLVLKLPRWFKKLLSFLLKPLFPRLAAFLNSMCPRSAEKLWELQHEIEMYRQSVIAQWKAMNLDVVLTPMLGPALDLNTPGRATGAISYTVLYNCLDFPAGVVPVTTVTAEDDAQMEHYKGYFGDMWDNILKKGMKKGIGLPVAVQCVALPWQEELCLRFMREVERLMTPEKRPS
Chain of UniProt A4X744 (whole entry, looked up): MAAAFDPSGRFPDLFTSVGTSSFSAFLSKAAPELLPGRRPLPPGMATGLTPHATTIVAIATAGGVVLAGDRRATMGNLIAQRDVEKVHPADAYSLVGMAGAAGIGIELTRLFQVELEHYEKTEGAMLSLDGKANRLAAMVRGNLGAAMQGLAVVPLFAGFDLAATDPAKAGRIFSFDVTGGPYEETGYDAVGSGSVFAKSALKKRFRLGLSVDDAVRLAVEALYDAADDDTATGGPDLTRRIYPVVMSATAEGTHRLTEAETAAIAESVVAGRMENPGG
Chain of UniProt Q00534 (whole entry, looked up): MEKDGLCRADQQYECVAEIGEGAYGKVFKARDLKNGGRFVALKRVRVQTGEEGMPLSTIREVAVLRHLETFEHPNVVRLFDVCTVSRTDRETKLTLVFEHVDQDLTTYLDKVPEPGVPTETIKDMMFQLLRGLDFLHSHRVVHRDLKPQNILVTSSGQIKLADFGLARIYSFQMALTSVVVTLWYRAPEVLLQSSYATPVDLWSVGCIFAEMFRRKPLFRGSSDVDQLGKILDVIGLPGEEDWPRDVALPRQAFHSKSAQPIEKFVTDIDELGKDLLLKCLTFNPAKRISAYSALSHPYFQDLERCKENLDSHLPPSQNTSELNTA
Chain of UniProt O43613 (whole entry, looked up): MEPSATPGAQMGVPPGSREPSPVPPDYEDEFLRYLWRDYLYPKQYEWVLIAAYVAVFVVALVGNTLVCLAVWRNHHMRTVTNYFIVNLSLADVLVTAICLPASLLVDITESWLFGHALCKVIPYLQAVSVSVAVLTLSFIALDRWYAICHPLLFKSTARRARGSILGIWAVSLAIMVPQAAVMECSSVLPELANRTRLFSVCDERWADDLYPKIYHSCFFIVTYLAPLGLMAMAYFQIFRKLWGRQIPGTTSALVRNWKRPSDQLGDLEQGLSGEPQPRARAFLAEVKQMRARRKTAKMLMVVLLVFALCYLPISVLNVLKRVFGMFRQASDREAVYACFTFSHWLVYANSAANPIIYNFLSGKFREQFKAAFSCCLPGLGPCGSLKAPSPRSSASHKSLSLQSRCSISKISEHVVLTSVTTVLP

| Molecule | tested on | test | test system | conditions | how to read | endpoint | value |
| --- | --- | --- | --- | --- | --- | --- | --- |
| Cc1cc(NC(=O)Nc2ccc(N(C)C)cc2)c2cc(F)cc(F)c2n1 | HCRTR1 (Homo sapiens, UniProt O43613) | reporter gene, antagonist, luciferase | – | – | – | IC50 | 0.18 µM |
| O=C1Nc2ccccc2/C1=C/c1cnc[nH]1 | Putative glycogen synthase kinase | enzyme activity, inhibitor | – | 90 min, 30 °C, with: ATP 2 µM | – | IC50 | 18.3 µM |
| Cc1cc(O)cc2c1O[C@](C)(CCC[C@H](C)CCC[C@H](C)CCCC(C)C)CC2 | PTGS2 (Homo sapiens, UniProt P35354) | enzyme activity, inhibitor, ELISA | – | – | – | IC50 | > 50 µM |
| CCCCCCCCCCCCCCCC(=O)N[C@@H](CCC(=O)NCCCC[C@H](NC(=O)[C@H](Cc1ccc(O)cc1)NC(=O)[C@H](CC(=O)O)NC(=O)[C@H](CO)NC(=O)[C@@H](NC(=O)[C@@H](O)Cc1ccccc1)[C@@H](C)CC)C(=O)N[C@H](C(=O)N[C@@H](C)C(=O)N[C@@H](CC(C)C)C(=O)N[C@@H](CC(=O)O)C(=O)N[C@@H](CCCCN)C(=O)N[C@H](C(=O)N[C@@H](CCCNC(=N)N)C(=O)N[C@@H](CCC(N)=O)C(=O)N[C@@H](CCC(N)=O)C(=O)N[C@@H](CCC(=O)O)C(=O)N[C@@H](Cc1ccccc1)C(=O)N[C@H](C(=O)N[C@@H](CC(N)=O)C(=O)N[C@@H](Cc1c[nH]c2ccccc12)C(=O)N[C@@H](CC(C)C)C(=O)N[C@@H](CC(C)C)C(=O)N[C@@H](C)C(=O)N[C@@H](CCC(N)=O)C(=O)N[C@@H](CCCCN)C(=O)NCC(=O)O)C(C)C)[C@@H](C)CC)[C@@H](C)CC)C(=O)O | GIPR (Homo sapiens, UniProt P48546) | cAMP production, antagonist | BHK | 3 h, 37 °C, with: GIP 50 pM | – | IC50 | 0.00191 µM |
| C[C@H]1CNCCc2ccc(Cl)cc21 | – | – | male Sprague-Dawley rat, plasma | subcutaneous, 3 mg/kg, single dose | – | AUC(0-t) | 184 ng·h/mL |
| C[C@@H]1CC[C@@]2(OC1)O[C@H]1[C@@H](O)[C@H]3[C@@H]4CC[C@H]5C[C@@H](O[C@@H]6O[C@H](CO)[C@H](O[C@@H]7O[C@H](CO)[C@@H](O)[C@H](O[C@@H]8OC[C@@H](O)[C@H](O)[C@H]8O)[C@H]7O[C@@H]7O[C@H](CO)[C@H](O)[C@H](O[C@@H]8O[C@H](CO)[C@@H](O)[C@H](O)[C@H]8O)[C@H]7O)[C@H](O)[C@H]6O)[C@H](O)C[C@]5(C)[C@H]4CC[C@]3(C)[C@H]1[C@@H]2C | KCNH2 (Homo sapiens, UniProt Q12809) | ion current, inhibitor, thallium influx | – | 10 (unit not given) | – | IC50 | 40 µM |
| O[C@H]1[C@H]2[C@H](O)CCCN2C[C@H]1O | Allium cepa α-mannosidase | enzyme activity, inhibitor | – | pH 4.0, 40 °C, with: 0.8 mM pNP-α-mannoside | – | IC50 | 0.2 µM |
| CN1C(=O)[C@]23SS[C@@]1(C)C(=O)N2[C@H]1Nc2ccccc2[C@@]1([C@@]12c4ccccc4N[C@@H]1N1C(=O)[C@@]4(C)SS[C@]1(C(=O)N4C)[C@H]2O)[C@@H]3O | SMYD2 (Homo sapiens, UniProt Q9NRG4) | enzyme activity, inhibitor, radiometric | – | – | – | IC50 | > 10 µM |
| O=[N+]([O-])c1ccc(CSc2ncnc3c2ncn3[C@@H]2O[C@H](CO)[C@@H](O)[C@H]2O)cc1 | SLC29A4 (Homo sapiens, UniProt Q7RTT9, I89M) | MPP+ uptake, inhibitor | MDCK expressing PMAT I89M | 1 min, 37 °C, with: [3H]MPP+ 1 µM | – | IC50 | 11.5 ± 5.1 µM |
| [123I]c1cncc(OC[C@@H]2CCN2)c1 | – | SPECT | human, occipital lobe | intravenous bolus plus infusion, 7.7 mCi | relative to: tissue over plasma | tissue/plasma ratio | 23.8 |
| eburicol | Cybb/Cyba (Mus musculus, UniProt Q61093+Q61462) | ROS production | BV-2 cell lysate | with: NADPH 200 µM | – | IC50 | > 50 µM |
| O=C(OC(C(F)(F)F)C(F)(F)F)N1CCC(C(O)(c2ccc3c(c2)OCO3)c2ccc3c(c2)OCO3)CC1 | Faah (Mus musculus, UniProt O08914) | competitive ABPP | mouse brain membrane proteome | – | – | IC50 | > 50 µM |
| Cn1c2c(c(=O)c3ccccc31)CC(O)C(C)(C)O2 (stereo not shown) | ACHE (Homo sapiens, UniProt P22303) | enzyme activity, inhibitor | – | – | – | IC50 | > 500 µM |
| c1ccc2c(c1)CCC[C@H]2Nc1nc2ccccc2[nH]1 | Small conductance calcium-activated potassium channel protein 3, open state (Homo sapiens, UniProt Q9UGI6) | cell-based | – | – | – | IC50 | 7 µM |
| CC1=C(C(=O)NC(=O)c2cnccn2)C(c2ccccc2)NC(=O)N1 (stereo not shown) | BCHE | – | – | – | – | IC50 | 7.21 ± 0.01 µM |
| O=C(O)C(=O)C=C(O)c1cn(Cc2ccc(F)cc2)c2cc(N3CCCC3)ccc2c1=O | Gag-Pol polyprotein, integrase (gag-pol, Human immunodeficiency virus 1, UniProt P12497) | concerted integration, inhibitor, measured: donor-donor products | – | 2 h, 37 °C | – | IC50 | 0.347 ± 0.042 µM |
| CC1(C)CCC(=Cc2ccc(Cl)cc2)C1(O)Cn1cncn1 (stereo not shown) | Androgen receptor (AR, Homo sapiens, UniProt P10275) | reporter gene, antagonist | T47D-ARE | 24 h, with: testosterone 20 nM | – | IC50 | 10.7 µM |
| CC[C@H]1C(=O)N[C@@]2([C@@H](O)[C@@H]3C=CCCC3)C(=O)O[C@@]12C | Proteasome subunit beta 2, alpha/beta1 complex (prcB2, Salinispora tropica, UniProt A4X744) | – | – | – | – | IC50 | 19.2 ± 3.5 µM |
| O=C(O)Cc1ccccc1OC(=O)NCCCCCn1ccc2ccc(F)cc21 | BCHE | enzyme activity, inhibitor, HPLC | – | – | – | IC50 | > 10 µM |

| Molecule | tested on | test | test system | conditions | how to read | endpoint | value |
| --- | --- | --- | --- | --- | --- | --- | --- |
| moenomycin | Transglycosylase (Staphylococcus aureus, UniProt Q9R744) | transglycosylase activity, inhibitor | RN4220 | 1 h, pH 7.0, 30 °C, 10% DMSO, with: [14C]-lipid II D-Ala-D-Lac 4 µM | – | IC50 | 0.19 ± 0.03 µM |
| CC(C)(O/N=C(\C(=O)N[C@@H]1C(=O)N2C(C(=O)[O-])=C(C[n+]3ccccc3)CS[C@H]12)c1csc(N)n1)C(=O)O | dacC (Pseudomonas aeruginosa, UniProt G3XD74) | binding, Bocillin FL competition | Pseudomonas aeruginosa 1771 membranes | PBP 5, with: Bocillin FL 100 µM | – | IC50 | > 45.7 µM |
| CN[C@@](C)(C[18F])C(=O)O | MDA-MB-468 tumour model | – | host not given, heart | 15 min, tumour-bearing | – | tracer uptake | 3.1 %ID/g |
| C=C(C)[C@@H]1CCC(C)=C[C@H]1c1c(O)cc(CCCCC)cc1O | UGT1A6 (Homo sapiens, UniProt P19224) | enzyme activity, inhibitor | recombinant UGT1A6 microsomes from HEK293 | pH 7.4, glucuronidation, with: serotonin | – | IC50 | 10 ± 2.6 µM |
| CCN(CC)CCCCNc1ncc2cc(-c3c(Cl)cccc3Cl)c(NC(=O)NC(C)(C)C)nc2n1 | ERRα (human) | reporter gene, antagonist, luciferase reporter qHTS | – | – | – | IC50 | 3.35 µM |
| COc1ccc(NC(=O)N2CCCCN3[C@H](CO)[C@H](c4ccc(C#CC5CC5)cc4)[C@@H]3C2)cc1 | Phenylalanine--tRNA ligase alpha subunit (Plasmodium falciparum, UniProt Q8I246) | aminoacylation activity, inhibitor | – | – | – | IC50 | 23.4 µM |
| C#Cc1ccc2ccc3cccc4ccc1c2c34 | Cytochrome P450 1B1 (CYP1B1, Homo sapiens, UniProt Q16678) | enzyme activity, inhibitor | – | 5 s, pH 7.4 | – | IC50 | < 0.05 µM |
| CCOC(=O)c1c(CSc2ccccc2)n(C)c2cc(Br)c(O)c(CN(C)C)c12 | SLCO1B1 (Homo sapiens, UniProt Q9Y6L6) | transport, inhibitor | – | 10 (unit not given), pre-incubation, with: estrone-3-sulfate | – | IC50 | 17.5 ± 11.9 µM |
| O=[N+]([O-])c1cccc2[nH]c(CNc3nc(N4CCOCC4)nc4c3ncn4-c3ccsc3)nc12 | Cyclin-dependent kinase 6, with cyclin D3 (CDK6, Homo sapiens, UniProt Q00534) | enzyme activity, inhibitor | – | – | – | IC50 | 0.311 µM |
| O=C(Nc1ccc(F)cc1)Oc1ccc[nH]c1=O | Replicase polyprotein 1ab, main protease (Feline coronavirus, UniProt Q98VG9) | enzyme activity, inhibitor, FRET | – | – | – | IC50 | 3.57 µM |
| O=C1Nc2ccc(S(=O)(=O)O)cc2C1=C1Nc2ccccc2C1=NO | Putative glycogen synthase kinase | enzyme activity, inhibitor | – | 90 min, 30 °C, with: ATP 2 µM | – | IC50 | 2.84 µM |
| COCCCNc1c2c3c(cccc3[nH]c1=O)C(=O)c1ccccc1-2 | ROP18 (Toxoplasma gondii, UniProt Q2PAY2) | kinase activity, inhibitor | – | with: peptide FL-E | – | IC50 | > 10 µM |
| C=CC(C)(C)c1[nH]c2cc(Br)ccc2c1CCNC | Neuronal acetylcholine receptor; alpha4/beta2, (α4)3(β2)2 stoichiometry (Homo sapiens, UniProt P17787+P43681) | ion current, inhibitor, two-electrode voltage clamp | Xenopus oocytes | low-sensitivity α4β2 stoichiometry, with: 100 µM acetylcholine (EC75) | – | IC50 | 100 µM |
| CC1(C)CC(NC(=O)C(=O)Nc2ccc(Cl)cc2)CC(C)(C)N1 | HIV-1 BG505 SOSIP.664 | inhibitor, competition ELISA | – | 10% DMSO | – | IC50 | > 100 µM |
| C[C@@H]1C[C@H]2[C@@H]3CCC4=CC(=O)C=C[C@]4(C)[C@@]3(Cl)[C@@H](O)C[C@]2(C)[C@@]1(OC(=O)c1ccco1)C(=O)CCl | ABCC1 (Homo sapiens, UniProt P33527) | efflux, inhibitor | SupT1-Vin overexpressing ABCC1 | with: BODIPY FL verapamil 100 nM | – | IC50 | 1.6 ± 1 µM |
| COc1cccc2c1C(=O)c1c(O)c3c(c(O)c1C2=O)C[C@@](O)(C(=O)CO)C[C@@H]3O[C@H]1C[C@H](N)[C@@H](O)[C@H](C)O1 | CRISPR-associated endonuclease Cas9/Csn1 (cas9, Streptococcus pyogenes serotype M1, UniProt Q99ZW2) | DNA cleavage, inhibitor, in vitro cleavage | Streptococcus pyogenes | with: plasmid or 87 bp linear DNA substrate | – | IC50 | 2 to 5 µM |
| CC(C)[C@H](CO)Nc1nc(Nc2cc(N)cc(Cl)c2)c2ncn(C(C)C)c2n1 | EGFR (Homo sapiens, UniProt P00533) | kinase activity, ADP luminescence | – | with: 200 µM ATP | – | IC50 | > 10 µM |
| O=C(O)c1ccccc1-c1c2ccc(=O)c([As]3SCCS3)c-2oc2c([As]3SCCS3)c(O)ccc12 | PTPN11 (Homo sapiens, UniProt Q06124) | enzyme activity, inhibitor | catalytic domain | 120 min preincubation, with: pNPP | – | IC50 | 0.053 µM |

For quick reference, copied from above:
| Molecule | tested on | test | test system | conditions | how to read | endpoint | value |
| --- | --- | --- | --- | --- | --- | --- | --- |
| moenomycin | Transglycosylase (Staphylococcus aureus, UniProt Q9R744) | transglycosylase activity, inhibitor | RN4220 | 1 h, pH 7.0, 30 °C, 10% DMSO, with: [14C]-lipid II D-Ala-D-Lac 4 µM | – | IC50 | 0.19 ± 0.03 µM |
| CC(C)(O/N=C(\C(=O)N[C@@H]1C(=O)N2C(C(=O)[O-])=C(C[n+]3ccccc3)CS[C@H]12)c1csc(N)n1)C(=O)O | dacC (Pseudomonas aeruginosa, UniProt G3XD74) | binding, Bocillin FL competition | Pseudomonas aeruginosa 1771 membranes | PBP 5, with: Bocillin FL 100 µM | – | IC50 | > 45.7 µM |
| CN[C@@](C)(C[18F])C(=O)O | MDA-MB-468 tumour model | – | host not given, heart | 15 min, tumour-bearing | – | tracer uptake | 3.1 %ID/g |
| C=C(C)[C@@H]1CCC(C)=C[C@H]1c1c(O)cc(CCCCC)cc1O | UGT1A6 (Homo sapiens, UniProt P19224) | enzyme activity, inhibitor | recombinant UGT1A6 microsomes from HEK293 | pH 7.4, glucuronidation, with: serotonin | – | IC50 | 10 ± 2.6 µM |
